Experimental data pooled from the literature.
Parts stem from different laboratories: compare values within a part only. Substitutions count along the parent as printed.

Study 1 — technique: protein binding microarray; molecule type: double-stranded DNA, one strand shown; matrix: in vitro; concentration: not given; relative to: not given; direction: higher = stronger binding
Target: Histone acetyltransferase KAT6A, both winged helices, GST fusion (KAT6A, Homo sapiens, UniProt Q92794, residues 1-181)
Setting: 8-mer, flanks averaged, mean of 2 arrays, mostly near background
Target sequence (chain): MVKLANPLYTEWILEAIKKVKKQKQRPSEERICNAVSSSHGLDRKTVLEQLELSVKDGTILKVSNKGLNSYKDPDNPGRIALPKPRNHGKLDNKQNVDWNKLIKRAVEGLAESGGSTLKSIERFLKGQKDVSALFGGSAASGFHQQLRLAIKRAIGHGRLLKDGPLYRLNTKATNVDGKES
For `CCGTTGGA`, the E-score was 0.144.
For `AGAGTCGA`, the E-score was -0.137.
`AGTGGTCG` has an E-score of -0.133.
`AAAGGAAT` gave an E-score of -0.113.
For `AGTGCGAA`, the E-score was -0.014.
`ATTCAACG` gave an E-score of 0.133.
For `GCCGGCCA`, the E-score was 0.255.
`AAGGCAAT` has an E-score of -0.198.
The E-score of `CAGCCACA` is reported as -0.115.
`ACCGTATC` has an E-score of 0.197.
With `GGCCCGCC` the E-score was 0.193.
For `AAAGTGTT`, the E-score was -0.0963.
`TATTCTCA` gave an E-score of -0.224.
With `CACCCGGC` the E-score was 0.245.
`TAGATGGA` gave an E-score of -0.209.
`ATTGGAGC` gave an E-score of -0.144.
`TGAGATCA` gave an E-score of -0.0482.
With `CGGATGTC` the E-score was 0.229.
The E-score of `GCAACCAC` is reported as -0.151.
`CCACTTGA` has an E-score of -0.158.
With `CGATATTA` the E-score was -0.00327.
`GACCGTAA` has an E-score of 0.244.
`AATTCGGA` has an E-score of 0.0742.
The E-score of `CTAATCCC` is reported as 0.0736.
For `AGTTCGCA`, the E-score was -0.00908.

Study 2 — technique: RNA Bind-n-Seq; molecule type: RNA; matrix: in vitro; concentration: 365 nM; relative to: no-protein control; direction: higher = stronger binding
Target: RNA binding protein fox-1 homolog 2, RRM domain, GST-SBP tag (RBFOX2, Homo sapiens, UniProt O43251-10, residues 100-194)
Setting: natural RNA segment, single round, ends assumed
Target sequence (chain): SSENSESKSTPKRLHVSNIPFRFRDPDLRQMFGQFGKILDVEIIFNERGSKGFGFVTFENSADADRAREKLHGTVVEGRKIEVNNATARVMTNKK
`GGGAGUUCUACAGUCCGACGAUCGUCAUGGAACUGAACAUUCAUCGAUGGUCUCCAUGUAUUCAUUUAUUCACUUGUUCAUUCAAGUAUUUAUUGAAUACCUGCCUCAAGCUAGAGAGAAAAGAGAGUGCGCUUGGAAUUCUCGGGUGCCAA`: “RBNS enrichment (R)” 0.306.
`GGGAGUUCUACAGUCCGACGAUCGUCUCCCUGGAUCAGAACAGGAGCUCUUAACUACAGUGGCUGAAUAGCUUCUCCAAAGGCUCCCUGUGUUCUCACCGUGAUCAAGUUGAGGGGCUUCCGGCUCCCUUCUAUGGAAUUCUCGGGUGCCAA`: “RBNS enrichment (R)” 0.315.
Under “RBNS enrichment (R)”, `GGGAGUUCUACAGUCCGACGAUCGGCAUCGGAGAUGGGUUAACAUCUCAAAACAAAAUAGCCUACAAAUGUUCCUUGUGGGAGACUUUGGCGAGGGUCUGUGGGUAAAAGCACCAGGGGGUUAAUCUUGGCUCUGGAAUUCUCGGGUGCCAA` is recorded as 0.567.
`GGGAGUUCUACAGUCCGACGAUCUUUAAGGAUGAGCCAAUAGUAAGAAUGUGGCUGUAAUCAGCAGAGACCCCUCUGAGGGGUAUCUGUUCUGCAGCCCCUAGUGAAAUCAUGUGAUGUGAGACAGAAACCUAUGGAAUUCUCGGGUGCCAA`: “RBNS enrichment (R)” 0.44.
`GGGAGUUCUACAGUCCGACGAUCUCUUGGGUGUUCCUUAUCUGGGGAAGCAAACAUUUCACUAGUCUCUUUUUUUCAUCCUUUAAAUUGUAAAUUAAGGAUUACUCAAGCUCACCAUUAUUCAAGAUUGGGACUGGAAUUCUCGGGUGCCAA` — result for “RBNS enrichment (R)”: 0.4.
`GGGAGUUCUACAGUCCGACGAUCCACCCAUGUAGCUGCUGUGUUGUGUAUAUAUUACUCUUAAGAGGAGUGUGUGUGUCUGUGUUUGUUUUAAAAGUCACUUAUUUCUUACAGUGAUUUCAAUUGCACCAUGAUGGAAUUCUCGGGUGCCAA` — result for “RBNS enrichment (R)”: 1.61.
`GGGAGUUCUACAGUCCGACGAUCGACUGAUGGCCUCGCUCUCUGACUUCCGUGUUCAGAACCAUGUUCCAGCCUCAGGGCCACCUCAGCCUCCAGCAGCGAGCCCCACCCGUGAAGGAUGCCCAUCUCCACCAUGGAAUUCUCGGGUGCCAA` — result for “RBNS enrichment (R)”: 0.421.
Under “RBNS enrichment (R)”, `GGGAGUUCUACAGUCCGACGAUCGCGCCCGGCGUUUGUGCAGGGGUGUCGGGAACGAACGCAGCCAGCGGGCAUCUGUGCGUGCGAGGAGACCCCUUCUCUCGGCCAAGUUUUUUCCCAUAACACCCACAUGGUGGAAUUCUCGGGUGCCAA` is recorded as 0.385.
Under “RBNS enrichment (R)”, `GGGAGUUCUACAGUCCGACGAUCUCCUUAGUCCUUGUUUGCUUUCUAAACCAAACUGGGAACACAUACAACAUUCAUCAUUUUACAUCCAGCUUUUUCACUUGACUUGUUUUCUCUUAAGCAUUUCUCCAUGCUGGAAUUCUCGGGUGCCAA` is recorded as 0.516.
`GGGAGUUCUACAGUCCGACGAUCAAGGUGGCGGUUUGUGCUUGCAGGGCAGCACUGCCCACCACCUGCCAGGGAGGAGCCUGAGCAGCUUCCAUAGCAGAUCCGUUGCCAGUUACCUGGCCUGUAAGCUUCUUUGGAAUUCUCGGGUGCCAA` — result for “RBNS enrichment (R)”: 0.293.
`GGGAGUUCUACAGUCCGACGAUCUUAGACUUCCCACUGUUCUGAAAGGAGACAUUGCUCUAUGUCUGCCUUCGACCACAGCAAGCCAUCAUCCUCCAUUGCUCCCGGGGACUCAAGAGGAAUCUGUUUCUCUGUGGAAUUCUCGGGUGCCAA`: “RBNS enrichment (R)” 0.329.
`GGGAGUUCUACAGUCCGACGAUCUGAGCUGCAGGAGGCAGGGGCAGCCGGGACAUGGGCACUUCAGGGCCGAGCCUCUGUGUUGCCUUCUCCUCUGUCCUCAGACUCAGGAGGCAGGUGGCAAUCUCCUCGCCUGGAAUUCUCGGGUGCCAA` — result for “RBNS enrichment (R)”: 0.23.

Study 3 — technique: protein-binding microarray; molecule type: double-stranded DNA, one strand shown; matrix: in vitro; concentration: 2540 nM top; setting: 60-bp whole probe; together with: salmon DNA 0.4 mg/ml; relative to: random background probes; direction: higher = stronger binding; shared flanks, not repeated: GCCTAGCAC … GTCTTGATTCGCTTGACGCTGCTG
Target: Interferon regulatory factor 3, full length, phosphomimetic (IRF3, Homo sapiens, UniProt Q14653, residues 1-427, S386D/S396D/S398D/S402D/T404D/S405D)
Residues (chain): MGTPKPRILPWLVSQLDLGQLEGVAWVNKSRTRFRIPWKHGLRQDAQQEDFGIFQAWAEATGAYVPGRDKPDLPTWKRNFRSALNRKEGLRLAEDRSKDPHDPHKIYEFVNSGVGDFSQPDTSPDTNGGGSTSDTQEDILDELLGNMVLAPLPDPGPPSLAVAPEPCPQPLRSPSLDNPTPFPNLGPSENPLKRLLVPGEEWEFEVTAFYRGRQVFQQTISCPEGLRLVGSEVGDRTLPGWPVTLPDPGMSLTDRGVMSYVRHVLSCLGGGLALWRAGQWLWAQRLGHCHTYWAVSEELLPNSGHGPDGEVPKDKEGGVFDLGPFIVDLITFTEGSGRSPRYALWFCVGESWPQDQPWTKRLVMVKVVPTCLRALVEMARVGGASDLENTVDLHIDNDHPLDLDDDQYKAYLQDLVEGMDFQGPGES
`TTAGGAGTGGACACTGGGTTAGTGCTA` — result for “fitted relative affinity”: -0.868 z-score.
Under “fitted relative affinity”, `TTAGGTCTCGGTTTCGGTGAGTGCTAG` is recorded as 4.32 z-score.
Under “fitted relative affinity”, `TTGGGTTTCGGACTGGGTTAGTGCTAG` is recorded as 3.05 z-score.
For `TTAGGTCTCGGTCTCGGTTAGTGCTAG`, “fitted relative affinity” read 1.32 z-score.
`TTTATTTTCTGAATGCCCTCGTGCTAG` — result for “fitted relative affinity”: 2.53 z-score.
For `GACGCTATCGACTTTCGGGACGTGCTA`, “fitted relative affinity” read 0.4 z-score.
`ATATCTTATCCTATCAGTTTGTGCTAG`: “fitted relative affinity” 1.69 z-score.
`TCTCTGCTCCTTCTGACATCGTGCTAG`: “fitted relative affinity” 0.925 z-score.
`GACGGTTTCAGACTGGAGACGTGCTAG` — result for “fitted relative affinity”: 2.58 z-score.
`GACGGACTGGGTTATCGGGACGTGCTA` — result for “fitted relative affinity”: -0.609 z-score.
`GACGGTCTCCTTTTCCTGACGTGCTAG`: “fitted relative affinity” 4.52 z-score.
`GACGGACTGCTTCTCCGGACGTGCTAG`: “fitted relative affinity” -0.0756 z-score.
Under “fitted relative affinity”, `TCAACCATCATCCTCACACTGTGCTAG` is recorded as 0.0317 z-score.
`GATGGTTTCCTACTGCTGACGTGCTAG`: “fitted relative affinity” 5.09 z-score.
`TTAGATTTCGGGTTTCCATTAGTGCTA`: “fitted relative affinity” 3.32 z-score.
`GCGGTTGGATCACAAGGTCAGTGCTAG` — result for “fitted relative affinity”: 0.125 z-score.
For `GACCGTTTCGGACTGGGGACGTGCTAG`, “fitted relative affinity” read 4.03 z-score.
For `TTAGGTTTCGGTCTCGGTCAGTGCTAG`, “fitted relative affinity” read 8.2 z-score.
`TCATGTTTACATATGTTACTGTGCTAG` — result for “fitted relative affinity”: 0.504 z-score.
For `GACGATATCGGGTATCGAGGCGTGCTA`, “fitted relative affinity” read 0.137 z-score.

Study 4 — target: CCND2, cyclin fold, Cln2 fusion (human); technique: yeast growth competition, sequencing; matrix: yeast; setting: weak parent motif; relative to: not given; direction: higher = stronger binding
Parent: E2F7 docking peptide (human); SSAQRRLEIPSGG
Under “normalised enrichment score”, `SSAQARAEIPSGG [R5A L7A]` is recorded as 0.22.
`SSAQRRLEIPSGA [G13A]` — result for “normalised enrichment score”: 0.196.
`SSAQRRLEIPAGG [S11A]` — result for “normalised enrichment score”: 0.219.
Under “normalised enrichment score”, `SSAQRRLEFPSGG [I9F]` is recorded as 1.12.
`SSAQRRLEIPSAG [G12A]` — result for “normalised enrichment score”: -0.028.
Under “normalised enrichment score”, `SSAQARLEIPSGG [R5A]` is recorded as 0.262.
`SSAQRALEIPSGG [R6A]` — result for “normalised enrichment score”: -0.422.
`SSAQRRLAIPSGG [E8A]` — result for “normalised enrichment score”: 0.263.
`SSAQKRLEIPSGG [R5K]` — result for “normalised enrichment score”: -0.387.
`SSAQRRLELPSGG [I9L]`: “normalised enrichment score” 0.178.

Study 5 — technique: universal PBM; molecule type: double-stranded DNA, one strand shown; matrix: in vitro; concentration: 600 nM; direction: higher = stronger binding
Target: Sal-like protein 4, full length isoform A (SALL4, Homo sapiens, UniProt Q9UJQ4, residues 1-1053)
UniProt Q9UJQ4, sequence (whole entry, looked up): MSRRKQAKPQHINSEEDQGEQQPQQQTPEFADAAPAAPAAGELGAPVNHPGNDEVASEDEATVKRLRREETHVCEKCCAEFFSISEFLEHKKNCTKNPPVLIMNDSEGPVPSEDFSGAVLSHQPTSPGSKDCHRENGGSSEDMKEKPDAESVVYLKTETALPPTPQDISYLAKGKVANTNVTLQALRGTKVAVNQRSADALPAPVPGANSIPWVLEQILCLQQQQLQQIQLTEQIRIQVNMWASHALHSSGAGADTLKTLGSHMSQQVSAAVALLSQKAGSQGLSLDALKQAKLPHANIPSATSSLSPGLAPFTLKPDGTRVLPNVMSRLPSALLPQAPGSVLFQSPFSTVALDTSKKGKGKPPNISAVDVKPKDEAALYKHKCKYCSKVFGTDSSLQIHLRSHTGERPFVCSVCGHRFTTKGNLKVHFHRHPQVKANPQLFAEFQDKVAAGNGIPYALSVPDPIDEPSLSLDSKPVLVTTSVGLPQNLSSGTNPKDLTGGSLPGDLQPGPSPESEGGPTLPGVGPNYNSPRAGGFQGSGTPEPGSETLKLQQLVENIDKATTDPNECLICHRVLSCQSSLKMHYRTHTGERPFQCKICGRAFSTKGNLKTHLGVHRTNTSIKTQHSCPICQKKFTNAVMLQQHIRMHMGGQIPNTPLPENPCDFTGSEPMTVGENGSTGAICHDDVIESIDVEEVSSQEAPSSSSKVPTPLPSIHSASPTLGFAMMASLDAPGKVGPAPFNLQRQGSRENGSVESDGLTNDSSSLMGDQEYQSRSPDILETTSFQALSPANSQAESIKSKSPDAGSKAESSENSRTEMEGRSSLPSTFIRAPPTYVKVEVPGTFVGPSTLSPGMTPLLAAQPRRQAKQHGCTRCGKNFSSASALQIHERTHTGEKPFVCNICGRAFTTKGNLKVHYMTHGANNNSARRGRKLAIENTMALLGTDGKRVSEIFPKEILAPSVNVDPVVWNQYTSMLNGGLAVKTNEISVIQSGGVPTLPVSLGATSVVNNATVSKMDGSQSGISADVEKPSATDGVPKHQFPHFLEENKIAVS
Setting: 8-mer, flanks averaged, mean of replicates
With `CGACACCA` the E-score was -0.169.
With `CCGCACCA` the E-score was -0.21.
`CAGGGAGA` gave an E-score of -0.259.
The E-score of `CCCGGATA` is reported as -0.179.
`ACGAATCC` has an E-score of -0.0455.
The E-score of `ACCTATTG` is reported as 0.231.
`ATGAAGGG` has an E-score of -0.0822.
The E-score of `ATTCTGAA` is reported as 0.198.
`CCTCCTGC` has an E-score of -0.133.
`CGGTCGAG` has an E-score of -0.246.
`AAATGGCC` gave an E-score of -0.165.
`ACTAATCG` has an E-score of 0.0834.
The E-score of `CTTGCTGC` is reported as -0.127.
`GCATAAGA` gave an E-score of 0.142.
The E-score of `TAGCCGAA` is reported as -0.103.
For `CGGCCTCA`, the E-score was -0.236.
For `GCTGACGA`, the E-score was -0.07.
With `AGCATCTC` the E-score was 0.0619.
For `CTAGTTAC`, the E-score was -0.0804.
`AGTCAAGA` gave an E-score of -0.0301.
`AATTTGTA` has an E-score of 0.344.
`ATCAATGA` gave an E-score of 0.257.
With `GTGATAGA` the E-score was 0.147.
With `GTTGCTGA` the E-score was 0.0362.

Further values, each from its own experiment
For `PhoQ, residues 284 288 289 292 302 303 STVVAA`, the fold induction was 1.36 (PhoP, residues 12 14 15 18 19 SYFRT (Escherichia coli, UniProt P23836); Sort-seq, measured: YFP reporter; E. coli; PhoQ-PhoP variant library, together with: 10 µM Mg2+; relative to: high Mg2+ state, higher = stronger signaling).

For quick reference, copied from above (study 3):
Under “fitted relative affinity”, `TTGGGTTTCGGACTGGGTTAGTGCTAG` is recorded as 3.05 z-score.
For `TTAGGTCTCGGTCTCGGTTAGTGCTAG`, “fitted relative affinity” read 1.32 z-score.
`TTTATTTTCTGAATGCCCTCGTGCTAG` — result for “fitted relative affinity”: 2.53 z-score.
For `GACGCTATCGACTTTCGGGACGTGCTA`, “fitted relative affinity” read 0.4 z-score.
`ATATCTTATCCTATCAGTTTGTGCTAG`: “fitted relative affinity” 1.69 z-score.
